Experimental data gathered from unrelated publications.
Each numbered part is a random draw from the data of one study; scales do not carry over between parts. Changes are numbered by the printed parent chain.

Set 1 — technique: RNA Bind-n-Seq; molecule type: RNA; matrix: in vitro; concentration: 20 nM; setting: 6-mer, flanks averaged, single round; added: 150 mM LiCl; relative to: input library; reading: higher = stronger binding
Target: TAR DNA-binding protein 43, full length, His tag (TARDBP, Homo sapiens, UniProt Q13148, residues 1-414)
Sequence	6-mer enrichment (R)
UAAAUC	0.864
GUACGG	1.05
GCAUUU	0.994
UUCGAG	0.899
UCAGAG	0.874
AUGCAU	0.98
UUCGCA	0.852
CAAUGG	0.93

Set 2 — target: CCNF, cyclin fold, Cln2 fusion (human); technique: yeast growth competition, sequencing; matrix: yeast; setting: strong parent motif; relative to: not given; reading: higher = stronger binding
Parent: SCAPER docking peptide (human); SNARRSLNFGGST
Change	normalised enrichment score
N8H	6.97
S1R	7.88
R4F	2.85
L7F	0.635
G11L	7.26
F9K	1.03
S12L	7.97
S12T	6.99

Set 3 — technique: RNA Bind-n-Seq; molecule type: RNA; matrix: in vitro; concentration: 1 µM; setting: whole 134-nt RNA, ends assumed; added: 150 mM KCl; relative to: input library; reading: higher = stronger binding
Target: Ras GTPase-activating protein-binding protein 1, RRM domain (G3BP1, Homo sapiens, UniProt Q13283)
Sequence of UniProt Q13283 (whole entry, looked up): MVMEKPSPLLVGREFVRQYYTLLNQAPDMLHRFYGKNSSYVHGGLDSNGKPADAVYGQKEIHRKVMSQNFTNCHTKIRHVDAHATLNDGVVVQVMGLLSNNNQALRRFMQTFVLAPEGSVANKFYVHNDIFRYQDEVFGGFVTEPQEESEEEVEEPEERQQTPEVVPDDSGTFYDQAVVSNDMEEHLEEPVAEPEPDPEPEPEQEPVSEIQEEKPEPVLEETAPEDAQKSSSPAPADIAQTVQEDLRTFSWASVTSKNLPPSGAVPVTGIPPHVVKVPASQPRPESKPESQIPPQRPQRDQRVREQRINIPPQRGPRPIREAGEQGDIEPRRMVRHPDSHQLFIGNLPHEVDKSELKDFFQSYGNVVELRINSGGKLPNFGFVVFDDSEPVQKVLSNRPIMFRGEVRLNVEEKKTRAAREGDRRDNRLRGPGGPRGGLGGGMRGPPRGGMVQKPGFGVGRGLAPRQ
All sequences stand within: GGGAGUUCUACAGUCCGACGAUC … UGGAAUUCUCGGGUGUCAAGG
Sequence	log2 enrichment
UGGGAGGUGGAUUUUGUUAAUUUUUUUAGCUCAUUUCCAGGGGUGGGAAUUUUUUUUUAAUAUGUGUCAUGAAUAAAGUUGUUUUUGAAA	0.902
AGUCCUGUGCUACACAUCGUAUGUACCGAAUCGGGUUUGGGAAAAAAAGGGUUUGGGAAAGUAUUAUGUUACGCCGUUCGGAUCUGCACU	0.387
GUCCUGUGCUACACAUCGUAUGUACCGAAUCGGGGAAAAAAAGGGGUUUGGGGUGGGGAAAGUAUUAUGUUACGCCGUUCGGAUCUGCAC	1.21
UCCUGUGCUACACAUCGUAUGUACCGAAUCGGGGAAAAAAGGGAAAAAAGGGAAAAAAGGAAAGUAUUAUGUUACGCCGUUCGGAUCUGC	0.0757
UCAUUCUAUACAGCCUUUUGUUUCAUUAGGAUCAGGCAGCUAGAGACAUGAAGAGGCUUGAAGAAAAGGACAAGGAAAGAAAAAACGUAA	-0.0626
UCCUGUGCUACACAUCGUAUGUACCGAAUCGGGCCCCCCGGCCCCCCGGGGCCCCCCGGGAAAGUAUUAUGUUACGCCGUUCGGAUCUGC	-0.414
CUCAAGUCCUGUGCUACACAUCGUAUGUACCGAAUCGGUUUUUUUGGUGGUGGAAAGUAUUAUGUUACGCCGUUCGGAUCUGCACUUCCA	-0.291
UAAAUUUAGAGGAGGAUCUGAUGGAUAUGGCAGUGGACGUGGAUUUGGGGAUGGCUAUAAUGGGUAUGGAGGAGGACCUGGAGGUGGCAA	-0.591

Further values, each from its own experiment
Molecule	target	read-out	molecule type	concentration	measurement	value
RTFSILNRK	HLA class I histocompatibility antigen, A alpha chain, allele A*80:01 (Homo sapiens, UniProt P04439)	peptide-MHC binding	peptide	concentration not given	binding	inactive

A few entries again (set 1):
Sequence	6-mer enrichment (R)
GUACGG	1.05
UUCGCA	0.852
AUGCAU	0.98
GCAUUU	0.994
